Experimental data from different studies.
Numbered parts are unrelated; each lists some results of a single study. Positions count from the first letter of the parent shown.

Study 1
Target: ABI1, truncated, D143A, DHFR fusion (Arabidopsis thaliana)
Method: DHFR PCA, deep sequencing
Sample: yeast
Setting: methotrexate growth selection, single substitutions
Together with: (+)-ABA 17 µM
Relative to: wild-type fitted maximum
Reading: higher = stronger binding
Measurement: relative binding score
Parent: PYL1, truncated, DHFR fusion (Arabidopsis thaliana); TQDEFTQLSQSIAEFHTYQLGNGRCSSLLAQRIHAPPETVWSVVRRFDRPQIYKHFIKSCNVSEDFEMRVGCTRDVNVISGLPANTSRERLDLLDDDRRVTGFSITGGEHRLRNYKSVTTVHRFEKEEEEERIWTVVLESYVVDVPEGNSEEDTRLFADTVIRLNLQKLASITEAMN
V121P: 0.561%
W41G: -7.29%
S11M: 72.8%
C60L: 16.9%
T86G: 68.5%
V145P: 1.53%
E89D: 22.4%
L82C: 37.4%
R155D: -13.8%
H55E: 81.5%
D97N: 93.6%
Y115I: 11.9%
Q7Y: 81.8%
Q7M: 85.9%
I162R: -10.4%
Q31P: -9.27%
D96I: -10.2%
E130L: 77.3%
V137F: 22.4%
K126I: 88.2%

Study 2
Target: Fragile X messenger ribonucleoprotein 1, C-terminal low-complexity region (Fmr1, Mus musculus, UniProt P35922)
Method: RNA Bind-n-Seq
Form: RNA
Sample: in vitro
Concentration: 200 nM
Setting: whole 134-nt RNA, ends assumed
Together with: 150 mM KCl
Relative to: input library
Reading: higher = stronger binding
Measurement: log2 enrichment
All sequences stand within: GGGAGUUCUACAGUCCGACGAUC … UGGAAUUCUCGGGUGUCAAGG
GCAGGAAGUAAAAACAAAUGGAAAUGCUUCGGAUAGUGGCAGGGGUGGGGGUUGCUAAGGAAAGGGUGGGAUGGGCGUGGGUAAAGAGUU: -0.0351
ACCAUGCAGGUGGGCAUCUUUGGGAAGUGGGGCAAGGGGGGGAUAGGGAGGGGGGUAACACUUUGGGAACAGGUGGUCCCUGGUCGUUUC: 0.798
CACAGACAACACGCACCCACACAGACACAGAGGGAAGGGGUUGGGAUGGGGACAGGGUGCACAGCAGGGCGGGCUAGGACCCCAGCCCCU: 1.36
AAGUCCUGUGCUACACAUCGUAUGUACCGAAUCGGGCCCGGGGCCCGGGCCCGGGGAAAGUAUUAUGUUACGCCGUUCGGAUCUGCACUU: -1.61
AGUCCUGUGCUACACAUCGUAUGUACCGAAUCAAAUUUUUAAACCCAAAUUUUUAAAAAAGUAUUAUGUUACGCCGUUCGGAUCUGCACU: -0.105
UCCUGUGCUACACAUCGUAUGUACCGAAUCAAAUUUUUUUAAACCCCCAAAUUUUUAAAAAAGUAUUAUGUUACGCCGUUCGGAUCUGCA: 0.523
CAAGUCCUGUGCUACACAUCGUAUGUACCGAAUCGGGAGGGAAAGGGUUUUUGGGAAAGUAUUAUGUUACGCCGUUCGGAUCUGCACUUC: 0.744
CUCAAGUCCUGUGCUACACAUCGUAUGUACCGAAUCGGGUUGGGGUUGGUUGGGAAAGUAUUAUGUUACGCCGUUCGGAUCUGCACUUCC: 0.8
UAACUUUAGAGGAGGAUCUGAUGGAUAUGUCAGUGGACGUGGAUUUGGGGAUGGCUAUAAUGGGUAUGGAGGAGGACCUGGAGGUGGCAA: 0.308
UGUUGCCGUGUGUCUCACCCUACCAUUUCAGAAAAAUGUUCGUUGGUGGCCUGAGCUGGGAUACUAGCAAAAAAGAUUUAAAAGACUAUU: -2.22

Study 3
Target: Centromere-binding protein 1, full length, N-terminal tag (CBF1, Saccharomyces cerevisiae, UniProt P17106, residues 1-351)
Chain of UniProt P17106 (whole entry, looked up): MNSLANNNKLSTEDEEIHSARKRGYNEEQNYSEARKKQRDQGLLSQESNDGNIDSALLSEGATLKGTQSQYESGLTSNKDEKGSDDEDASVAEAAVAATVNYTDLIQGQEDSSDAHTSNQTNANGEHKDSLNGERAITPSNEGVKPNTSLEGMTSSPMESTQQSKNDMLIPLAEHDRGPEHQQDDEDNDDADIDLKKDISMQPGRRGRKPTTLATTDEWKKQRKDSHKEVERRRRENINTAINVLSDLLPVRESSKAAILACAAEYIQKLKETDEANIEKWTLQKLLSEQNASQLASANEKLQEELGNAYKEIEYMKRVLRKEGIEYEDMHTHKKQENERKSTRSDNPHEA
Method: protein-binding microarray
Form: double-stranded DNA, one strand shown
Sample: in vitro
Concentration: 0.8 µM
Setting: whole 60-bp probe, no competitor
Reading: higher = stronger binding
Measurement: fluorescence intensity
All sequences stand within: … GTCTTGATTCGCTTGACGCTGCTG
TGTACGAAGCTATGTCATGATCATATAGTAGTTAGG: 573 a.u.
TGTACGAAGCTATAGATCACCAGTATAGTAGTTAGG: 548 a.u.
GAAAGCCTCGCTTCACGTGTAACATACACAGTTTAG: 1930 a.u.
TGTACGAAGCTATGGCACGAGAATATAGTAGTTAGG: 620 a.u.
GAATGTGGGTGTGGTGTGGTGTGGGTGTGGGTGTAG: 529 a.u.
CTACGGGTTATAATGCACGTGATATGCACGTGGTTC: 25600 a.u.
GAAAGACGTGATTCGGGCGTGATTAATATTCCTTAG: 746 a.u.
GAACCACACAATCATCATGATGTTTTAGAGCTTTAG: 496 a.u.
CCTAACTACTATAAAGTTGTGACATAGCTTCGTACA: 532 a.u.
CTATACCTTGGAGCTAGTGTGATCTTGTTGATATTC: 530 a.u.
CTAAATATGGAATGTGTCATGAATACTATCAGCTTC: 528 a.u.
GAAACGAAAAGTGTAGGCGTGCCACAAATGTCATAG: 588 a.u.
CTAAGAACGCTGAAACACGTTGTTCACATCACCTTC: 606 a.u.
GAATTTGTGAACATGCACGTTCACTACGCTGCTTAG: 609 a.u.

Study 4
Target: Sal-like protein 4, full length isoform B (SALL4, Homo sapiens, UniProt Q9UJQ4-2, residues 1-616)
Method: universal PBM
Form: double-stranded DNA, one strand shown
Sample: in vitro
Concentration: not given
Setting: 8-mer, flanks averaged, mean of replicates
Reading: higher = stronger binding
Measurement: E-score
CTATCCGC: -0.0773
GTAAAACA: 0.169
AGATAAAG: 0.2
GAGTCGGC: -0.224
AATTTGCG: 0.0641
ATGTGCTC: -0.00662
CGCAGTTC: -0.161
CGGTGTCA: -0.246
TACCTCCA: 0.0139
ATGGGATA: 0.111
CAAACATC: 0.056
AGTAGTGG: -0.0372
AGGGCAGC: -0.239
CAAGGCCG: -0.209
GTCGGAGA: -0.118
ACCGGTCC: -0.312
CTCAGTCC: -0.2

Study 5
Target: Histone acetyltransferase KAT6A, both winged helices, GST fusion (KAT6A, Homo sapiens, UniProt Q92794, residues 1-181)
Method: protein binding microarray
Form: double-stranded DNA, one strand shown
Sample: in vitro
Concentration: not given
Setting: 8-mer, flanks averaged, mean of 2 arrays, mostly near background
Relative to: not given
Reading: higher = stronger binding
Measurement: E-score
Construct (chain): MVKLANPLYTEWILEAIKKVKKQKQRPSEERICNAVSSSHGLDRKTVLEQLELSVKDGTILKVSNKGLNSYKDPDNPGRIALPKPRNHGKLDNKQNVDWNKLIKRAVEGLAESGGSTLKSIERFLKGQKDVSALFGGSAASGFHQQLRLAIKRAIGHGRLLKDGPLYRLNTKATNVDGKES
CTTGTAGA: -0.0256
CGACGCGA: 0.234
ACTCCCCC: -0.133
TACCGTCA: 0.162
GGTGCCAA: -0.193
CTGGACAA: -0.135
AAGCAGTC: -0.138
GAAGATAC: 0.109
GGAGAGCA: -0.16
ATCTATTA: -0.0545
AGAAATCG: -0.146
AAATGAAT: -0.176
CGGCCTGA: 0.137
ATTAGACC: 0.0178
CGCTGTAA: 0.18
CCCCAACC: -0.126
ATTTTGCA: -0.23
CAACATAG: -0.0915
AGAAACCT: -0.234
GAATTAGA: -0.182
CTGAGCAG: -0.0611
AGAGACCA: -0.127
AAGTGCCG: 0.248
AGTGGCCG: -0.0197
ATCTGCTG: -0.182

Further values, each from its own experiment
P1: CDAN1 docking peptide (human); RGARSQLFPPTEA; partner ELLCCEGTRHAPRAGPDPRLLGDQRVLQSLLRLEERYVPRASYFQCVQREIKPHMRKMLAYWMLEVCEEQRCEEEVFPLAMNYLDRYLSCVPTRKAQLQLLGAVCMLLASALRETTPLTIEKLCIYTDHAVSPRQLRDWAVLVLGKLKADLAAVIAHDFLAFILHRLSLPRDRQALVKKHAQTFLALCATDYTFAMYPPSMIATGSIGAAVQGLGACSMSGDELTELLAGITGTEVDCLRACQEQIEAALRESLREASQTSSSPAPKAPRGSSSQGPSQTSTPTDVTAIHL
P1 P9A — normalised enrichment score (CCND3, cyclin fold, Cln2 fusion (human); yeast growth competition, sequencing; yeast; weak parent motif; relative to: not given, higher = stronger binding): 0.414
GAPLKKLFTSTGL — binding enrichment score (human cyclin B2; peptide binding, yeast competitive growth sequencing; peptide, Saccharomyces cerevisiae, cyclin B2-Cln2 fusion; concentration not given, combined libraries; direction not given): 0.371

Some of these lines once more (study 1):
T86G: 68.5%
D97N: 93.6%
L82C: 37.4%
C60L: 16.9%
E130L: 77.3%
Q7Y: 81.8%
Q7M: 85.9%
W41G: -7.29%
E89D: 22.4%
I162R: -10.4%
Y115I: 11.9%
V137F: 22.4%
H55E: 81.5%
Q31P: -9.27%
D96I: -10.2%
